# Measured values pooled from the literature.
# Compare with care: the assays were run in different laboratories.
SMILES,assay,system,conditions,quantity,value
Cc1cn([C@H]2O[C@@H](CO[P@@](=O)(N[C@@H](C)C(=O)OC(C)C)Oc3ccccc3)[C@H](O)[C@H]2F)c(=O)[nH]c1=O,item: ALT/AST elevated,human,10 mg,patients with TEAE,0%
CN(C)C(=O)c1cc2cnc(Nc3ccc(N4CCNCC4)cn3)nc2n1C1CCCC1,"item: Renal toxicity, AESI","human, HR+/HER2− advanced breast cancer","oral, dose not given, grade 4, CTCAE v4.03",patients with adverse event,0%
C[C@]1(O)C[C@@](N)(c2ccc(-c3nc4n(c3-c3ccccc3)COc3ccncc3-4)cc2)C1,,"human, advanced or metastatic solid tumours","16 mg once daily, dose-ranging cohort",patients with serious adverse event,100%
COc1ccc(-c2c(-c3ccc(C#N)c(F)c3)nc(N3CCC(N)CC3)n(C)c2=O)cc1F,item: hepatic hemorrhage,human patients,"oral, dose not given, dose escalation",patients with serious TEAE,0%
Cn1cncc1-c1c(F)cncc1NC(=O)c1c(N)nn2cc(F)cnc12,,human patients,"oral, 220 mg once daily, 21 days, 2 weeks on 1 week off",patients with anaemia DLT,33%
CN[C@@H](C)C(=O)N[C@H]1CN(S(=O)(=O)c2cccc(S(=O)(=O)N3CC[C@H]4CC[C@@H](C(=O)NC(c5ccccc5)c5ccccc5)N4C(=O)[C@@H](NC(=O)[C@H](C)NC)C3)c2)CC[C@H]2CC[C@@H](C(=O)NC(c3ccccc3)c3ccccc3)N2C1=O,,"human, advanced solid tumours",30 mg,patients with treatment-related asthenia,0%
Cn1nc(NS(C)(=O)=O)c2c(Cl)ccc(-n3c([C@H](Cc4cc(F)cc(F)c4)NC(=O)Cn4nc(C(F)F)c5c4C(F)(F)[C@@H]4C[C@H]54)nc4nc(OCCC(F)(F)F)ccc4c3=O)c21,item: total cholesterol grade 3 increase,human,"300 mg once daily, powder in bottle",patients with laboratory abnormality,13%
C[C@@H]1OC(=O)NN=C1c1ccc(-c2ccc(F)cc2)c(C(F)(F)F)c1,"phase I trial, item: Ascites worst grade 2",human patients,5 mg once daily,patients with adverse event,0%
N[C@@H]1c2ccccc2OC12CCN(c1cnc3c(N4CCCc5ncccc54)n[nH]c3n1)CC2,item: Thrombocytopenia,human advanced or metastatic solid tumours,"oral, 60 mg once daily, phase Ia pooled cohort",patients with treatment-emergent adverse event,20%
CNC(=O)c1cc(Oc2ccc(NC(=O)Nc3cc(C(C)(C)C)nn3-c3ccc4ncccc4c3)c(F)c2)ccn1,,"human, trial","oral, 200 mg twice daily, starting dose",patients with any related serious AE,25%
C=CC(=O)Nc1cc(Nc2nccc(Nc3cc(Cl)c(F)cc3C(C)(C)O)n2)c(OC)cc1N1CC[C@@H](N(C)C)C1,,human patients,"oral, 300 mg, treatment-emergent adverse events",patients with dizziness,9.8%
COc1ncnn2ccc(-c3cnc4nc(C)n(Cc5nnc([C@@H](C)F)o5)c4c3)c12,,human,"oral, dose not given, grade 5",patients with taste disorder,0%
O=C1Nc2cc3[nH]nc(-c4ccncc4)c3cc2CN1Cc1ccccc1,CTCAE v4.03,"human, relapsed or refractory advanced solid tumours","intravenous, 0.45 mg/kg, pooled schedules",patients with vomiting,0%

# Some of these lines once more:
SMILES,assay,system,conditions,quantity,value
C[C@]1(O)C[C@@](N)(c2ccc(-c3nc4n(c3-c3ccccc3)COc3ccncc3-4)cc2)C1,,"human, advanced or metastatic solid tumours","16 mg once daily, dose-ranging cohort",patients with serious adverse event,100%
COc1ccc(-c2c(-c3ccc(C#N)c(F)c3)nc(N3CCC(N)CC3)n(C)c2=O)cc1F,item: hepatic hemorrhage,human patients,"oral, dose not given, dose escalation",patients with serious TEAE,0%
